Measurements collected from several papers.
Parts stem from different laboratories: compare values within a part only.

Series 1
Target: Histone acetyltransferase KAT6A, winged helix 2, GST fusion (KAT6A, Homo sapiens, UniProt Q92794, residues 85-181)
Method: protein binding microarray
Molecule type: double-stranded DNA, one strand shown
Sample: in vitro
Tested at: not given
Setting: 8-mer, flanks averaged, mean of 2 arrays, mostly near background
Relative to: not given
Reading: higher = stronger binding
Endpoint: E-score
Construct (chain): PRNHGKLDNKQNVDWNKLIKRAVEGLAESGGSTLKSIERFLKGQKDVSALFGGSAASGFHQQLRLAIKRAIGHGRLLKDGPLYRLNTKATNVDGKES
AGGAATTC: -0.0549
CCAGTCAA: -0.112
GCAAAACC: 0.0245
AACCTGAA: -0.216
GACGGCGA: 0.132
CTTTAAAA: 0.139
GCCGCCAA: 0.123
GAATCACA: -0.14
TCTGCGAA: 0.0468
GCGCTGAC: -0.0822
CGGTACAG: 0.0462
AATGCACA: 0.126
CCTTTATA: -0.156
AGCGAGTA: 0.0852
GTTTTGGA: 0.127
TCACAGGA: -0.1
CTCTAGTA: -0.0287
CTTCTGAC: -0.0865
AAAGTGCC: -0.0732
CGCGCCAG: 0.253
GAACCTAA: -0.0173
AGACAAAG: -0.0112
CAGCCCTA: -0.0527
ATGTTAAG: -0.00212
CAGTTTCC: 0.0281

Series 2
Target: RNA binding protein fox-1 homolog 2, RRM domain, GST-SBP tag (RBFOX2, Homo sapiens, UniProt O43251-10, residues 100-194)
Method: RNA Bind-n-Seq
Molecule type: RNA
Sample: in vitro
Tested at: 365 nM
Setting: natural RNA segment, single round, ends assumed
Relative to: no-protein control
Reading: higher = stronger binding
Endpoint: RBNS enrichment (R)
Construct (chain): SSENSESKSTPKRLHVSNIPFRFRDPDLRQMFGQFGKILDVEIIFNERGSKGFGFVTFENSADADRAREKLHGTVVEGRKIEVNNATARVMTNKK
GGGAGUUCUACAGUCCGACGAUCAUCAGAUGGAUGGAUUUGUGUUUGUCUCAGAGCAGCAUAUACAUGCAGUCAGUAAGCAUGUUUGAAAGGACCAUAAAAACCAGAGAAAUGCUGAUGGGAACUUGGAAGUUUGGAAUUCUCGGGUGCCAA: 0.791
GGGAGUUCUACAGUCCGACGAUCCAGGUAUUGUGUGUAUGCAUUUAGUUGUGCACACACAAAUAUGCUCCUAUACUGGCAUUAGGCGUCUCCUCAUCCCUCACCCUGACCUUUCUCCUGUCCUUUUCUUGGCUUGGAAUUCUCGGGUGCCAA: 0.54
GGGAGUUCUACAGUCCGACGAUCUGUUUUCAAAGGAAUGAGGUGUUUAGGUGGCUGGAAAAGCAUUUGUAGGAAGUUAGAUUUGAAUAUAGACAAGGUGGGUUAUUCACGUUGAGAAUGUUAUUUGAAGAAUGUGGAAUUCUCGGGUGCCAA: 8.85
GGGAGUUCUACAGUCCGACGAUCGUUACACUGAUCUAAAGGACAUAUAUAUAACCCUUUAAAAAAAAAAUCACUGCCUCAUUCUUAUUUCAAGAUGAAUUUCUAUACAGACUAGAUGUUUUUCUGAAGAUCAAUGGAAUUCUCGGGUGCCAA: 0.467
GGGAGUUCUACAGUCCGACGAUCACUUCCUCUUCUCCGCCCUCAGCUUUCCUCUCAUGUGGCAAACGUGCGACUCUGUGGUCCUGAGUGCCAGAAGCUGUCUCCAUGGGUUGGUCACAGUGUGCAUCGCACCGUGGAAUUCUCGGGUGCCAA: 0.374
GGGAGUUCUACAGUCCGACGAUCGGAGCAGCCAGCCAUUUGGGAGAAGAUCUCAAGGAUCCAGACUCUCAUUCCUUUCCUCUGGCCCAGUGAAUUUGGUCUCUCCCAGCUCUGGGGGACUCCUUCCUUGAACCUGGAAUUCUCGGGUGCCAA: 0.272
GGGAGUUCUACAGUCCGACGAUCAAAGGAAGGUUUUCACCUGUAGAAAGCCCCCUGCCUCCAGCCAAAUAGUCCCAUGCUGACUUUCUAUCUUCCUUUCUCAAACUGUCUUAGGAAGGACCUUCAGUGCAGAUUGGAAUUCUCGGGUGCCAA: 0.377
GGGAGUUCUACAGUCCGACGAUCCCUUCAUUUAACUCUUUGAAACUGUAUCAUCUUUGCCAAGUAAGAGUGGUGGCCUAUUUCAGCUGCUUUGACAAAAUGACUGGCUCCUGACUUAACGUUCUAUAAAUGAAUGGAAUUCUCGGGUGCCAA: 0.544
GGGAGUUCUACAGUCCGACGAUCAUGUGAGUGACAGGGAACAAUCCCAGCUCUGGGCUCUGCAGAAACUCACAAACUAAACUCCUUUCUGGUUGUCUGUUUUCAAAAUAGAUACAAUAAACAUUGUUUAUGUCUGGAAUUCUCGGGUGCCAA: 0.251

Series 3
Target: Ras GTPase-activating protein-binding protein 1, RRM domain (G3BP1, Homo sapiens, UniProt Q13283)
Sequence of UniProt Q13283 (whole entry, looked up): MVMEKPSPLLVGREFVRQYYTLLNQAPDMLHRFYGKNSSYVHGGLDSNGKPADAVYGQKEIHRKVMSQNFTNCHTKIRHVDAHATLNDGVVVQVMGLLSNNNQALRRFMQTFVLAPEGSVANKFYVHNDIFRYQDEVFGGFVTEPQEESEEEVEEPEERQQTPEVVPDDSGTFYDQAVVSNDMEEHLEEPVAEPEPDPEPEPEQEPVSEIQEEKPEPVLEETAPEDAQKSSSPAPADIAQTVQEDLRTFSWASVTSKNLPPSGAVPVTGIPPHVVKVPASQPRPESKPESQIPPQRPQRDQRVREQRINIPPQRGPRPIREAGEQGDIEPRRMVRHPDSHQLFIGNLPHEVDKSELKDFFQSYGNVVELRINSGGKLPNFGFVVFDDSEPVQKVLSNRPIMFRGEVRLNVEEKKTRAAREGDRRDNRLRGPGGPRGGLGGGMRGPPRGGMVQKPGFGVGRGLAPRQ
Method: RNA Bind-n-Seq
Molecule type: RNA
Sample: in vitro
Tested at: 1 µM
Setting: whole 134-nt RNA, ends assumed
With: 150 mM KCl
Relative to: input library
Reading: higher = stronger binding
Endpoint: log2 enrichment
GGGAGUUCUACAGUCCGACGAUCUCAAGUCCUGUGCUACACAUCGUAUGUACCGAAUCGGGGAAGGGGAAGGGAAGGGAAAGUAUUAUGUUACGCCGUUCGGAUCUGCACUUCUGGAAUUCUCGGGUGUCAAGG: 0.881
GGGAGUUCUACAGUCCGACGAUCAGUCCUGUGCUACACAUCGUAUGUACCGAAUCGGGGAAAGGGGUGGGGUUUUUGGGGAAAGUAUUAUGUUACGCCGUUCGGAUCUGCACUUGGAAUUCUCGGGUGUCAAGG: 0.746
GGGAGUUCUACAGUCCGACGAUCCCUCAAGUCCUGUGCUACACAUCGUAUGUACCGAAUCGGGUUGGUUGGUUGGGAAAGUAUUAUGUUACGCCGUUCGGAUCUGCACUUCCAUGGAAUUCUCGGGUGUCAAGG: -0.294
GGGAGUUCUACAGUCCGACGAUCCACAGACAACACGCACCCACACAGACACAGAGGGAAGGGGUUGGGAUGGGGACAGGGUGCAGAGCAGGGCGGGGUAGGACCCCAGCCCCUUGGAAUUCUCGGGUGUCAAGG: -0.0258
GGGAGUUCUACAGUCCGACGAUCUAGGAAAACCGUCUUCAGAUACAGUCCCUAAGCCCAAGAGAGCCCCAAAACAGAAGAAAGUAGUAGAGGCUGUAAACUCUGACUCGGAUUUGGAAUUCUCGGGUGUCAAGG: -0.0464
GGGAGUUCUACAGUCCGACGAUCGUCCUGUGCUACACAUCGUAUGUACCGAAUCAAAUUUUUAAAUUUAAACCCCCCCAAAAAAGUAUUAUGUUACGCCGUUCGGAUCUGCACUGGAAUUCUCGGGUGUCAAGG: -1.08
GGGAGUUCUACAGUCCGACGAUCAAGUCCUGUGCUACACAUCGUAUGUACCGAAUCGGGGAGGGGUUUGGGGAAAGGGGAAAGUAUUAUGUUACGCCGUUCGGAUCUGCACUUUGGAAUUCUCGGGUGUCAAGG: 1.45
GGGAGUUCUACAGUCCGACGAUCUGGGAGGUGGAUUUUGUUUAUUUUUUUAGCUCAUUUCCAGGGGUGAGAAUUUUUUUUUAAUAUGUGUCAUGAAUAAAGUUGUUUUUGAAAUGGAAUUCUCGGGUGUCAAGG: 1.21
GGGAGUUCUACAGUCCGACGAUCCCUCAAGUCCUGUGCUACACAUCGUAUGUACCGAAUCGGCCGGGCCGGCCGGAAAGUAUUAUGUUACGCCGUUCGGAUCUGCACUUCCAGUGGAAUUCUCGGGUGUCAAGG: -0.489
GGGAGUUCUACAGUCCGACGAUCACCAUGCAGGUGGGCAUCUUUGGGAAGUGGGGCAAGGGGGGGAUAGGGAGGGGGGUAACACUUUGGGAACAGGUGGUCGCAGGUCGUUUCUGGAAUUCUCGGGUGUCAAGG: 0.94

Series 4
Target: Phosphate system positive regulatory protein PHO4, full length, GST-tagged (PHO4, Saccharomyces cerevisiae, UniProt P07270, residues 1-312)
Method: competition protein-binding microarray
Molecule type: double-stranded DNA, one strand shown
Sample: in vitro
Tested at: 2 µM
Setting: whole 60-bp probe, lowest competitor level
With: Cbf1 competitor, 0.05 µM
Reading: higher = stronger binding
Endpoint: fluorescence intensity
Target sequence (chain): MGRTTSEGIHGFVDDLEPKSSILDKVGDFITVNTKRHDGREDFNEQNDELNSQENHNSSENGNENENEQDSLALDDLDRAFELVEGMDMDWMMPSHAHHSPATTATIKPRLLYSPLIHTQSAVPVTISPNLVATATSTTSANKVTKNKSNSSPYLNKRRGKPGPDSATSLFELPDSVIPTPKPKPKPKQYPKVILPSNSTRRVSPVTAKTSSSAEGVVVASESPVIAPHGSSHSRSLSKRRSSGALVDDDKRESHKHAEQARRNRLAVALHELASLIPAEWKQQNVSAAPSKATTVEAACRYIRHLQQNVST
CGGGGTTAAGTTTGTGCAGTGGGTGGCTTGCAGCAGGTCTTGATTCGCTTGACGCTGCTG: 5440 a.u.
CATACCCAACCTTGGTAAGTGGGTGAAGATATTTGTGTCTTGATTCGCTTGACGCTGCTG: 3910 a.u.
CTTTCCCGATCTTGTCACGGTACTTTAGCACATTTGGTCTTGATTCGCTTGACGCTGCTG: 5030 a.u.
GTCTTGTCTCATTGACTCGTGGGTGTCCCCACTTCAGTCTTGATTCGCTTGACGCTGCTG: 10300 a.u.
CTTCTGTAAATTTGAGATGTGGGTGGACGCGCCCCGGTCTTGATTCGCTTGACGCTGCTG: 3980 a.u.
CTAACGAAGGTTTTTCACGTGGAGTACAAGCCAAGTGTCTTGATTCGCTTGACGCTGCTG: 12900 a.u.
GTCTTGTCTCATTGATTTGTGGGTGTCCCCACTTCAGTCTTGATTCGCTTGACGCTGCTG: 4320 a.u.
CTTTCCCGATCTTTTCACGTGAAGTTAGCACATTTGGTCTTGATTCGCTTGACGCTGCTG: 9700 a.u.
CTAACGAAGGTTTGCCACGTGGGTGACAAGCCAAGTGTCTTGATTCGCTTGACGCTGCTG: 16900 a.u.
CTAACGAAGGTTTGAGTTGTGGGTGACAAGCCAAGTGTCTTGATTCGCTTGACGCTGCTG: 3770 a.u.
CTTTCCCGATCTTGGGTTGTGGGTGTAGCACATTTGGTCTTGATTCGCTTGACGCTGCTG: 5540 a.u.
AAAGCGGTAATTTGAGTAGTGGGTGCAGATATCTATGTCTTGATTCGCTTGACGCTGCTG: 4670 a.u.
AGCGGAGTTTCGAATTCCGTGTCCTTCTGAGCGTATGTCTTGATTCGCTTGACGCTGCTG: 3890 a.u.
CTTTCCCGATCTTGTCACCGTACTTTAGCACATTTGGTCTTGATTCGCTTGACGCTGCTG: 3950 a.u.
AAATTACTAAGTTGTCACAGGACTTACCCCGTATGAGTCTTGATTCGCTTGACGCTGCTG: 3320 a.u.
GAACAACTGTATTGCCACATGGGCAGACCAGATCGGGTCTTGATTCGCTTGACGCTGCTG: 10700 a.u.
CTTTCCCGATCTTGAATCGTGGGTGTAGCACATTTGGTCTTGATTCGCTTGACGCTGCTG: 7690 a.u.
TTTTCTGATTGCCAGCCCGTGCGGATTAGGGATTTCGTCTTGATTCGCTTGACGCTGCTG: 8590 a.u.

A few entries again (series 1):
AGGAATTC: -0.0549
AGCGAGTA: 0.0852
GTTTTGGA: 0.127
GCGCTGAC: -0.0822
GCAAAACC: 0.0245
GAATCACA: -0.14
AAAGTGCC: -0.0732
CTTCTGAC: -0.0865
